Assay results from different studies.
Protocols differ between the studies behind these lines. ± marks the error that the study gave.
Calpain-2 catalytic subunit: Calpain-2 catalytic subunit (Homo sapiens, UniProt P17655)
UniProt P17655, sequence (whole entry, looked up): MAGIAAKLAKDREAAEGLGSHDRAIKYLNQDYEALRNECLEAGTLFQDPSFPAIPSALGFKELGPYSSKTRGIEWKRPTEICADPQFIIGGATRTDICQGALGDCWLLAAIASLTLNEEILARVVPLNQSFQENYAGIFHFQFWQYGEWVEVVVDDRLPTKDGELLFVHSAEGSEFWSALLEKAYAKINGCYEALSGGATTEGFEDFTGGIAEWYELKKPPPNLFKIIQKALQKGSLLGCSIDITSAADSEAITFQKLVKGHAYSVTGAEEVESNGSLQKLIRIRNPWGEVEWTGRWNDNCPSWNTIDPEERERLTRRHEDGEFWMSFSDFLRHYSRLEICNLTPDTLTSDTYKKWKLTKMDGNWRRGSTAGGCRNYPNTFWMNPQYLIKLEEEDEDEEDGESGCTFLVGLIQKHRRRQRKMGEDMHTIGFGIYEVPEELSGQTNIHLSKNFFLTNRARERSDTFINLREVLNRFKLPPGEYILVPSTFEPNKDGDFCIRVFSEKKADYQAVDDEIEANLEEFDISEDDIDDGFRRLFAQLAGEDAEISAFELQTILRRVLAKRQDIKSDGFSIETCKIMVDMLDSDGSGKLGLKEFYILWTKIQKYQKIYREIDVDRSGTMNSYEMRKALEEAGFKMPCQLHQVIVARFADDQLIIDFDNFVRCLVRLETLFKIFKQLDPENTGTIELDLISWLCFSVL
PTGS2: Prostaglandin G/H synthase 2 (PTGS2, Homo sapiens, UniProt P35354)
UniProt P35354, sequence (whole entry, looked up): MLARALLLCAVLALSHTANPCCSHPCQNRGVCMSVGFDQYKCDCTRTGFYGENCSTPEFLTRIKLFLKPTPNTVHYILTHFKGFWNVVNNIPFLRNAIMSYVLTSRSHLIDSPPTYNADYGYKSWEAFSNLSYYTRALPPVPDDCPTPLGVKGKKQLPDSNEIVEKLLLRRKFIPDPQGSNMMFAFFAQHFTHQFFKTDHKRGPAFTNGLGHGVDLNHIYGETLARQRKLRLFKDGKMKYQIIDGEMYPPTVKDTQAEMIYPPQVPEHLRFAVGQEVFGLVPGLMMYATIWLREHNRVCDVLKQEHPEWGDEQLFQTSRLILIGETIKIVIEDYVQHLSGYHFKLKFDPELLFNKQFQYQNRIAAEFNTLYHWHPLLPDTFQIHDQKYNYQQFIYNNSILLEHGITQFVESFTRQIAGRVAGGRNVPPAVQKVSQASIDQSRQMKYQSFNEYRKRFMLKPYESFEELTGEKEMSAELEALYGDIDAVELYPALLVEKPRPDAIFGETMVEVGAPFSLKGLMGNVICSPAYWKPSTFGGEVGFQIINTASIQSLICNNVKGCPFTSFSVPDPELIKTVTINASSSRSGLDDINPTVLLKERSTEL
HDAC3: Histone deacetylase 3 (HDAC3, Homo sapiens, UniProt O15379)
UniProt O15379, sequence (whole entry, looked up): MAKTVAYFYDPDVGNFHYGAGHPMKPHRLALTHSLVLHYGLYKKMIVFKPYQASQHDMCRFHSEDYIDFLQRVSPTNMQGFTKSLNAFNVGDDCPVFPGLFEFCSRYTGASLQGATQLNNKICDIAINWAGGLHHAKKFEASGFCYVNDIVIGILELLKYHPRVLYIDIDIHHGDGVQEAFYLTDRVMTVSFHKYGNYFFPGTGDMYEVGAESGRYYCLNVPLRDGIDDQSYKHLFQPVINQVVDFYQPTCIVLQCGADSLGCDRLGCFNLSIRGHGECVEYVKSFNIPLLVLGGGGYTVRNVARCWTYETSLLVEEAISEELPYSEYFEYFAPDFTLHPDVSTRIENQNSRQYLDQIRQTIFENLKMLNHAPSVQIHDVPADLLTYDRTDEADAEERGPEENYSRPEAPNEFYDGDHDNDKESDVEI
P4HB: Protein disulfide-isomerase (P4HB, Homo sapiens, UniProt P07237)
UniProt P07237, sequence (whole entry, looked up): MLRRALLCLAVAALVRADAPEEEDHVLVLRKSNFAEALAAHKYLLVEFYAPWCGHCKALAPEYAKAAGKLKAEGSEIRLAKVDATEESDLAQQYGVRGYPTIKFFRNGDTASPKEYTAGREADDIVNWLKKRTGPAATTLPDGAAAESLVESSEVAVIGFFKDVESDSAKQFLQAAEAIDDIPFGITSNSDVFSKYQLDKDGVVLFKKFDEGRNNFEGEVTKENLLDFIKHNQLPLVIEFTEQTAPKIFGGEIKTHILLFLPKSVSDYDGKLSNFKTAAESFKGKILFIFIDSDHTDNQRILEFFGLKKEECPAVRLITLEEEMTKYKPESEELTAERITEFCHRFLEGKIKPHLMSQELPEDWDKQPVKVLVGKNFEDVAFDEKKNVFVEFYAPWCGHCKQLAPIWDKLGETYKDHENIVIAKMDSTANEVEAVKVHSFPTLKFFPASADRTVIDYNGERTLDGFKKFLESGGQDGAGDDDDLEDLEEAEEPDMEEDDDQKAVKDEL
UniProt Q8NHU3, sequence (whole entry, looked up): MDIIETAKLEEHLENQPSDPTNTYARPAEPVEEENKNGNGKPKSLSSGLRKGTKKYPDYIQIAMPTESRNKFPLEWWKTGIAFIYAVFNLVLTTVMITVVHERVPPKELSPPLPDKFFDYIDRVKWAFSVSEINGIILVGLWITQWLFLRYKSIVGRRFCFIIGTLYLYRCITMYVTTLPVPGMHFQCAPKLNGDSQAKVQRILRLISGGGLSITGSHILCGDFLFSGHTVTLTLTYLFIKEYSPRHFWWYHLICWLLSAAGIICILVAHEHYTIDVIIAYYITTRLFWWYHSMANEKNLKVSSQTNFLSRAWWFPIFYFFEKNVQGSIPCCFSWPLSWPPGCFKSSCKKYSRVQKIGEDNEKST
UniProt P00488, sequence (whole entry, looked up): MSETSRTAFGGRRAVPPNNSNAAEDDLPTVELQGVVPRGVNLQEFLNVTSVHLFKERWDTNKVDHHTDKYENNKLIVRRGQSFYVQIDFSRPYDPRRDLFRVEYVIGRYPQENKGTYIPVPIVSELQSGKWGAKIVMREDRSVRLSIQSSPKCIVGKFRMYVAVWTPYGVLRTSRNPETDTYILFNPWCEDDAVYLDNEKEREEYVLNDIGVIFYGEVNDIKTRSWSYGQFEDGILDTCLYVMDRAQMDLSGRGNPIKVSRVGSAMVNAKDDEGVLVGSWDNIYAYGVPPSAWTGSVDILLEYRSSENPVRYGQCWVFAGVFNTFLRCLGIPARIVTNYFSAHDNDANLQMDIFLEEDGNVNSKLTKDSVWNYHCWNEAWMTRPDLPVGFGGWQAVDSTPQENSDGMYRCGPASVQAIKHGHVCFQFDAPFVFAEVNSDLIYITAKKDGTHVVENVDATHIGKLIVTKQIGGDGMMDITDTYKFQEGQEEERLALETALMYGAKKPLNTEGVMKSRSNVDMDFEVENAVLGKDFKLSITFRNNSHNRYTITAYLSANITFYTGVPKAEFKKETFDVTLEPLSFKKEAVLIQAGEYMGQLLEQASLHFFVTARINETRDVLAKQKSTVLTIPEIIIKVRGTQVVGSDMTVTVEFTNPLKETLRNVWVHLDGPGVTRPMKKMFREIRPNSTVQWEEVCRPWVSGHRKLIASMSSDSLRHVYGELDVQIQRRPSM
UniProt Q9Y251, sequence (whole entry, looked up): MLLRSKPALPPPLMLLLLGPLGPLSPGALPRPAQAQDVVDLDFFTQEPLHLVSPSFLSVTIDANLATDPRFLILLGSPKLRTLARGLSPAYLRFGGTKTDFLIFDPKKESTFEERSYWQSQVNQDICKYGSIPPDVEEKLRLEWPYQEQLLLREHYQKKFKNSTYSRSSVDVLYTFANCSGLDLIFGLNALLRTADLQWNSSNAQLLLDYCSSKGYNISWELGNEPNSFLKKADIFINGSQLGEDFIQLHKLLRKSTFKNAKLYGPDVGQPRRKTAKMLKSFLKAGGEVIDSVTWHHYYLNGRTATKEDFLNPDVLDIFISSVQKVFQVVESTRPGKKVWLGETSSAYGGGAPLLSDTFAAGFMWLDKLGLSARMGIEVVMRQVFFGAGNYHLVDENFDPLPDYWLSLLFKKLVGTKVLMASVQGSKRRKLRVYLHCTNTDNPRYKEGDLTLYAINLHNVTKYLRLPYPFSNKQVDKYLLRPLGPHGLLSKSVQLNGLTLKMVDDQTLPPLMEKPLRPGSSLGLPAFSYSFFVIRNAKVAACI

Structure (SMILES)	tested on	assay	system	conditions	scale	endpoint	value
[64Cu+2].c1cnc(CNCc2ccc(CN3CCCN4CCNCCCN(CC4)CC3)cc2)nc1	CXCR4		NOD/SCID mouse, U87 and U87-stb-CXCR4 xenografts, blood	iv, 450 min, ex vivo		tissue uptake	1.02 ± 0.11 %ID/g
CCC(NC(=O)C(CC(C)C)NC(=O)CCc1ccc(C#N)cc1)C(=O)C(=O)NCc1cc(OC)cc(OC)c1 (centres unmarked)	Calpain-2 catalytic subunit	enzyme activity, inhibitor		together with: Suc-Leu-Tyr-AMC	reference: Ki calpain-1 over calpain-2	selectivity ratio	1.1
COc1cccc(NCc2cn(-c3ccccc3)nc2-c2ccc(OCc3ccccc3)cc2)c1	PTGS2	enzyme activity, inhibitor, TMPD chromogenic			reference: COX-1 IC50 over COX-2 IC50	selectivity ratio	22
CCCCC/C=C/C(=O)CCc1ccc(O)c(OC)c1	mAb 5-3H1	antibody binding, indirect competitive ELISA		together with: coating antigen 3-OVA		IC50	> 4 µg/mL
NS(=O)(=O)c1ccc(-n2cc(CNc3ccccc3)c(-c3ccc(OCc4ccccc4)cc3)n2)cc1	PTGS2	enzyme activity, inhibitor, TMPD chromogenic			reference: COX-1 IC50 over COX-2 IC50	selectivity ratio	14.9
CN(C)CCNC(=O)c1cccc2c(NCCCCc3c(N)nc(N)nc3N)c3ccccc3nc12	RNA D, U–U mismatch	binding, ITC			reference: Kd RNA A over Kd RNA D	selectivity ratio	6.9
O=C(Nc1cccnc1)c1ccccc1OCc1ccccc1	Phosphatidylcholine:ceramide cholinephosphotransferase 2 (SGMS2, Homo sapiens, UniProt Q8NHU3)	enzyme activity, inhibitor			reference: IC50 SMS1 over IC50 SMS2	selectivity ratio	48
Fc1ccc(NCc2cn(-c3ccccc3)nc2-c2ccc(OCc3ccccc3)cc2)cc1Cl	PTGS2	enzyme activity, inhibitor, TMPD chromogenic			reference: COX-1 IC50 over COX-2 IC50	selectivity ratio	32.3
CCc1nc2cc3ccccc3cc2cc1C(=O)N1CCC[C@H]1C(=O)N[C@@H](CCC/C=C/CCC[C@H](NC(=O)[C@@H]1CCCN1C(=O)c1cc2cc3ccccc3cc2nc1CC)C(=O)N[C@@H](CCCCN)C(=O)NCCCN)C(=O)N[C@@H](CCCCN)C(=O)NCCCN	(CUG)10 RNA	binding, SPR			reference: (CUG)10 over (CAG)10	selectivity ratio	38 fold
N=C(N)NCCC[C@@H]1NC(=O)[C@H](CCCCNC(=O)CNC(=O)CNC(=O)CNC(=O)CC[C@H](NC(=O)CNC(=O)CNC(=O)CNC(=O)CN2CCN(CC(=O)O)CCN(CC(=O)O)CCN(CC(=O)O)CC2)C(=O)NCC(=O)NCC(=O)NCC(=O)NCCCC[C@@H]2NC(=O)[C@@H](Cc3ccccc3)NC(=O)[C@H](CC(=O)O)NC(=O)CNC(=O)[C@H](CCCNC(=N)N)NC2=O)NC(=O)[C@@H](Cc2ccccc2)NC(=O)[C@H](CC(=O)O)NC(=O)CNC1=O [indium-111 labelled]			female athymic nu/nu mice, brain	intravenous, 72 h		tissue uptake	0.04 %ID/g
NS(=O)(=O)c1ccc(-n2cc(CNc3ccccc3Cl)c(-c3ccc(OCc4ccccc4)cc3)n2)cc1	PTGS2	enzyme activity, inhibitor, TMPD chromogenic			reference: COX-1 IC50 over COX-2 IC50	selectivity ratio	73
CCC(NC(=O)C(CC(C)C)NC(=O)NCc1ccccc1)C(=O)C(=O)NCc1cc(F)cc(OC)c1 (centres unmarked)	Calpain-2 catalytic subunit	enzyme activity, inhibitor		together with: Suc-Leu-Tyr-AMC	reference: Ki calpain-1 over calpain-2	selectivity ratio	1
O=C(CCCCCCNCc1cccnc1)NO	HDAC3	deacetylase activity, inhibitor, fluorescence		together with: Boc-Lys(Ac)-AMC substrate	reference: IC50 HDAC3 over IC50 HDAC1	selectivity ratio	0.72
CCC(NC(=O)C(CC(C)C)NC(=O)NCc1ccc(C#N)cc1)C(=O)C(=O)NCc1cc(OC)cc(OC)c1 (centres unmarked)	Calpain-2 catalytic subunit	enzyme activity, inhibitor		together with: Suc-Leu-Tyr-AMC	reference: Ki calpain-1 over calpain-2	selectivity ratio	1.6
CC(C)=CCCC(C)=CCc1cc(-c2coc3cc(OC4OC(C(=O)O)C(O)C(O)C4O)ccc3c2=O)ccc1O (centres unmarked)		glucuronidation, substrate	mouse liver microsomes			substrate inhibition Ki	15.4 ± 2.35 µM
CCCCCCc1ccc(S(=O)(=O)N2CC2C(=O)NC)cc1 (centres unmarked)	P4HB	insulin reduction, inhibitor			reference: IC50 PDIA1 over IC50 PDIA3	selectivity ratio	0.0004 to 0.0035
N#CCc1cccc(Cl)c1-c1ccc2[nH][11c](=O)[nH]c2c1	P-glycoprotein and Bcrp	ex vivo brain uptake	mouse	injection, 5 min, together with: tariquidar and Ko143	reference: without inhibitors	brain-to-blood ratio increase	202%
O=C(CCCCCCN(Cc1ccc2c(c1)OCO2)Cc1ccc2c(c1)OCO2)NO	HDAC3	deacetylase activity, inhibitor, fluorescence		together with: Boc-Lys(Ac)-AMC substrate	reference: IC50 HDAC3 over IC50 HDAC1	selectivity ratio	1.5
CCCC[C@H](NC(=O)CNC(=O)CNC(=O)CN1CCN(CC(=O)O)CCN(CC(=O)O)CCN(CC(=O)O)CC1)C(=O)N[C@H]1CC(=O)NCCCC[C@@H](C(N)=O)NC(=O)[C@H](Cc2c[nH]c3ccccc23)NC(=O)[C@H](CCCNC(=N)N)NC(=O)[C@@H](Cc2ccccc2)NC(=O)[C@H](Cc2c[nH]cn2)NC1=O [lutetium-177 labelled]			C57 mouse, female, heart	intravenous, 0.037 MBq, 0.5 h		tissue uptake	1.12 ± 0.22 %ID/g

Structure (SMILES)	tested on	assay	system	conditions	scale	endpoint	value
O=C(CCCCCCN(Cc1ccc(F)cc1)Cc1ccc(F)cc1)NO	HDAC3	deacetylase activity, inhibitor, fluorescence		together with: Boc-Lys(Ac)-AMC substrate	reference: IC50 HDAC3 over IC50 HDAC1	selectivity ratio	0.92
COc1cc(CCC(C)=O)ccc1O	mAb 5-3H1	antibody binding, indirect competitive ELISA		together with: coating antigen 3-OVA		IC50	> 4 µg/mL
O=C(CCCCCCN(Cc1ccccc1)Cc1ccccc1)NO	HDAC3	deacetylase activity, inhibitor, fluorescence		together with: Boc-Lys(Ac)-AMC substrate	reference: IC50 HDAC3 over IC50 HDAC1	selectivity ratio	1
CCCCCCc1ccc(S(=O)(=O)N2CC2C(=O)OC)cc1 (centres unmarked)	P4HB	insulin reduction, inhibitor			reference: IC50 PDIA1 over IC50 PDIA3	selectivity ratio	0.0004 to 0.0035
COC(=O)[C@@]1(C)C=C(C(=O)Nc2cccc(C(=O)Nc3ccc(Nc4nccc(-c5cccnc5)n4)c(C)c3)c2)C(=O)CC1	Mitogen-activated protein kinase 1 (MAPK1, Homo sapiens, UniProt P28482)				reference: JNK1 over MAPK1	selectivity ratio	~1000 fold
CCC(NC(=O)C(CC(C)C)NC(=O)NCc1ccccc1)C(=O)C(=O)NCc1cc(OC)cc(OC)c1 (centres unmarked)	Calpain-2 catalytic subunit	enzyme activity, inhibitor		together with: Suc-Leu-Tyr-AMC	reference: Ki calpain-1 over calpain-2	selectivity ratio	2.9
N=C(N)NCCC[C@@H]1NC(=O)[C@H](CCCCNC(=O)CC[C@H](NC(=O)CC[C@H](NC(=O)CN2CCN(CC(=O)O)CCN(CC(=O)O)CCN(CC(=O)O)CC2)C(=O)N[C@@H](CCC(=O)NCCCC[C@@H]2NC(=O)[C@@H](Cc3ccccc3)NC(=O)[C@H](CC(=O)O)NC(=O)CNC(=O)[C@H](CCCNC(=N)N)NC2=O)C(=O)NCCCC[C@@H]2NC(=O)[C@@H](Cc3ccccc3)NC(=O)[C@H](CC(=O)O)NC(=O)CNC(=O)[C@H](CCCNC(=N)N)NC2=O)C(=O)NCCCC[C@@H]2NC(=O)[C@@H](Cc3ccccc3)NC(=O)[C@H](CC(=O)O)NC(=O)CNC(=O)[C@H](CCCNC(=N)N)NC2=O)NC(=O)[C@@H](Cc2ccccc2)NC(=O)[C@H](CC(=O)O)NC(=O)CNC1=O [indium-111 labelled]			female athymic nu/nu mice, brain	intravenous, 4 h		tissue uptake	0.1 ± 0.02 %ID/g
CCC(NC(=O)C(CC(C)C)NC(=O)CCc1ccccc1)C(=O)C(=O)NCc1cc(OC)cc(OC)c1 (centres unmarked)	Calpain-2 catalytic subunit	enzyme activity, inhibitor		together with: Suc-Leu-Tyr-AMC	reference: Ki calpain-1 over calpain-2	selectivity ratio	2.4
COc1ccc(CNCCCCCCC(=O)NO)cc1OC	HDAC3	deacetylase activity, inhibitor, fluorescence		together with: Boc-Lys(Ac)-AMC substrate	reference: IC50 HDAC3 over IC50 HDAC1	selectivity ratio	0.86
CCCCCCc1ccc(S(=O)(=O)N2CC2C(=O)N(C)C)cc1 (centres unmarked)	P4HB	insulin reduction, inhibitor			reference: IC50 PDIA1 over IC50 PDIA3	selectivity ratio	0.0004 to 0.0035
CC(=O)NCCO[C@H]1[C@H](O)[C@@H](O)[C@@H]2O[C@@H]2[C@@H]1C(=O)O	Heparanase (HPSE, Homo sapiens, UniProt Q9Y251)	inhibitor, competitive ABPP			reference: IC50 E. coli β-glucuronidase over HPSE	selectivity ratio	20
CC[C@H](C)[C@H](NC(=O)[C@@H](NC(=O)[C@H](Cc1ccc(O)cc1)NC(=O)[C@H](CCCCN)NC(=O)[C@H](CCCCN)NC(=O)[C@H](CC(C)C)NC(=O)[C@H](CC(=O)O)NC(=O)[C@H](Cc1ccc(O)cc1)NC(=O)[C@H](CCC(N)=O)NC(=O)[C@H](CCCCN)NC(=O)[C@@H](NC(=O)[C@H](Cc1ccccc1)NC(=O)[C@H](CCCCN)NC(=O)[C@H](CCCCN)NC(=O)[C@H](Cc1c[nH]c2ccccc12)NC(=O)[C@H](CCCCN)NC(=O)[C@H](CCSC)NC(=O)[C@H](CCCNC(=N)N)NC(=O)[C@H](CCCNC(=N)N)NC(=O)[C@H](CC(N)=O)NC(=O)[C@H](CCC(N)=O)NC(=O)[C@H](Cc1ccccc1)NC(=O)[C@H](Cc1c[nH]c2ccccc12)NC(=O)[C@@H](NC(=O)[C@H](CCCCN)NC(=O)[C@@H](NC(=O)[C@H](CCC(N)=O)NC(=O)[C@@H](N)CCCNC(=N)N)[C@@H](C)CC)[C@@H](C)CC)[C@@H](C)CC)[C@@H](C)CC)C(=O)O	Plasmodium falciparum			90 µM		time to caspase activation	≤ 4 h
Cc1ccc(C(=O)Nc2ccc(CP(=O)(O)O)cc2CP(=O)(O)O)cc1NC(=O)c1cccc(NC(=O)Nc2cccc(C(=O)Nc3cc(C(=O)Nc4ccc(CP(=O)(O)O)cc4CP(=O)(O)O)ccc3C)c2)c1	Coagulation factor XIII A chain (F13A1, Homo sapiens, UniProt P00488)	enzyme activity, inhibitor			reference: factor XIa over factor XIIIa	selectivity ratio	> 27 fold
N=C(N)NCCC[C@@H]1NC(=O)[C@H](Cc2c[nH]c3ccccc23)NC(=O)[C@@H](CC2CCCCC2)NC(=O)[C@@H]2CCCN2C(=O)[C@@H](NC(=O)CCc2ccccc2)CCCNC1=O		two-compartment model	C57BL/6J mice, plasma	oral, 1 mg/kg		alpha rate constant	0.03 min⁻¹
O=C(CCCCCCNCc1ccccc1)NO	HDAC3	deacetylase activity, inhibitor, fluorescence		together with: Boc-Lys(Ac)-AMC substrate	reference: IC50 HDAC3 over IC50 HDAC1	selectivity ratio	1.3
Clc1ccc(NCc2cn(-c3ccccc3)nc2-c2ccc(OCc3ccccc3)cc2)cc1	PTGS2	enzyme activity, inhibitor, TMPD chromogenic			reference: COX-1 IC50 over COX-2 IC50	selectivity ratio	47.5
COc1ccc(CN(CCCCCCC(=O)NO)Cc2ccc(OC)c(OC)c2)cc1OC	HDAC3	deacetylase activity, inhibitor, fluorescence		together with: Boc-Lys(Ac)-AMC substrate	reference: IC50 HDAC3 over IC50 HDAC1	selectivity ratio	1.1
NS(=O)(=O)c1ccc(-n2cc(CNc3ccc(Cl)cc3)c(-c3ccc(OCc4ccccc4)cc3)n2)cc1	PTGS2	enzyme activity, inhibitor, TMPD chromogenic			reference: COX-1 IC50 over COX-2 IC50	selectivity ratio	64.4
[64Cu+2].c1ccc(CNCc2ccc(CN3CCCN4CCNCCCN(CC4)CC3)cc2)nc1	CXCR4		NOD/SCID mouse, U87 xenografts, U87 tumour	90 min		tissue uptake	3.92 ± 0.54 %ID/g

Some of these lines once more:
Structure (SMILES)	tested on	assay	system	conditions	scale	endpoint	value
COC(=O)[C@@]1(C)C=C(C(=O)Nc2cccc(C(=O)Nc3ccc(Nc4nccc(-c5cccnc5)n4)c(C)c3)c2)C(=O)CC1	Mitogen-activated protein kinase 1 (MAPK1, Homo sapiens, UniProt P28482)				reference: JNK1 over MAPK1	selectivity ratio	~1000 fold
N#CCc1cccc(Cl)c1-c1ccc2[nH][11c](=O)[nH]c2c1	P-glycoprotein and Bcrp	ex vivo brain uptake	mouse	injection, 5 min, together with: tariquidar and Ko143	reference: without inhibitors	brain-to-blood ratio increase	202%
N=C(N)NCCC[C@@H]1NC(=O)[C@H](CCCCNC(=O)CNC(=O)CNC(=O)CNC(=O)CC[C@H](NC(=O)CNC(=O)CNC(=O)CNC(=O)CN2CCN(CC(=O)O)CCN(CC(=O)O)CCN(CC(=O)O)CC2)C(=O)NCC(=O)NCC(=O)NCC(=O)NCCCC[C@@H]2NC(=O)[C@@H](Cc3ccccc3)NC(=O)[C@H](CC(=O)O)NC(=O)CNC(=O)[C@H](CCCNC(=N)N)NC2=O)NC(=O)[C@@H](Cc2ccccc2)NC(=O)[C@H](CC(=O)O)NC(=O)CNC1=O [indium-111 labelled]			female athymic nu/nu mice, brain	intravenous, 72 h		tissue uptake	0.04 %ID/g
CN(C)CCNC(=O)c1cccc2c(NCCCCc3c(N)nc(N)nc3N)c3ccccc3nc12	RNA D, U–U mismatch	binding, ITC			reference: Kd RNA A over Kd RNA D	selectivity ratio	6.9
Cc1ccc(C(=O)Nc2ccc(CP(=O)(O)O)cc2CP(=O)(O)O)cc1NC(=O)c1cccc(NC(=O)Nc2cccc(C(=O)Nc3cc(C(=O)Nc4ccc(CP(=O)(O)O)cc4CP(=O)(O)O)ccc3C)c2)c1	Coagulation factor XIII A chain (F13A1, Homo sapiens, UniProt P00488)	enzyme activity, inhibitor			reference: factor XIa over factor XIIIa	selectivity ratio	> 27 fold
CCC(NC(=O)C(CC(C)C)NC(=O)CCc1ccc(C#N)cc1)C(=O)C(=O)NCc1cc(OC)cc(OC)c1 (centres unmarked)	Calpain-2 catalytic subunit	enzyme activity, inhibitor		together with: Suc-Leu-Tyr-AMC	reference: Ki calpain-1 over calpain-2	selectivity ratio	1.1
